# Assay results collected from several papers.
# Values joined by “and” are separate records of one study, mostly repeats; a detail may differ.
# KIT: Mast/stem cell growth factor receptor Kit (KIT, Homo sapiens, UniProt P10721)
# KIT D816V: Mast/stem cell growth factor receptor Kit (KIT, Homo sapiens, UniProt P10721, D816V)
# KIT A829P: Mast/stem cell growth factor receptor Kit (KIT, Homo sapiens, UniProt P10721, A829P)
# KIT D816H: Mast/stem cell growth factor receptor Kit (KIT, Homo sapiens, UniProt P10721, D816H)
# KIT T670I/V559D: Mast/stem cell growth factor receptor Kit (KIT, Homo sapiens, UniProt P10721, T670I/V559D)
Structure (SMILES),target,assay,setting,scale,measurement,result
COc1c(Cl)cccc1Nc1c(-c2ccncc2C#C[C@@]2(C)CCCN2C(=O)/C=C/CN(C)C)[nH]c2c1C(=O)NCC2,"KIT (Homo sapiens, UniProt P10721, V559D)","binding, competition with immobilised ligand",3 µM,,remaining binding,96%
COCC12C(=O)NC3C4(C(OC)CC1O)C1CC5(O)C(OC)C(O)C(OC(C)=O)(C1C5OC(=O)c1ccccc1)C3(O)C(OC)C24 (centres unmarked),KIT,"kinase activity, inhibitor, ProQinase kinase profiling",25 µM,baseline: control,remaining activity,111% and 118%
O=C=[N][Ru-4]123([n]4c5ccc(O)cc5c5c6c(c7cc(F)c[n+]1c7c54)C(=O)NC6=O)[S+]1CC[S+]2CC[S+]3CC1 (centres unmarked),KIT D816V,enzyme activity,"100 nM, human enzyme, added: 10 µM ATP",baseline: untreated,remaining activity,103%
CN1CCN(c2ccc(Nc3ncc(Cl)c(Nc4ccccc4P(C)(C)=O)n3)cc2Br)CC1,KIT,"enzyme activity, inhibitor",0.1 µM,,inhibition,26%
Nc1ncc2c(n1)-c1c([nH]c3ccc(C4=CCOCC4)cc13)CCC2,KIT A829P,"binding, competition with immobilised ligand",1 µM,,remaining binding,91%
CC(C)=CC1OC(C)(C)C2C=C3C(=O)C(Cl)=CC(O)C3C3C(O)C4OC4C(=O)C132 (centres unmarked),KIT A829P,"cell-free assay, competition with immobilised ligand",10 µM,,remaining binding,87%
CNC(=O)C1CCN(c2cc(C)c(F)cc2NC(=O)c2ccc(-c3cc(O)ccc3C)c(C)c2)CC1,KIT D816H,"binding, competition with immobilised ligand",1 µM,,remaining binding,40%
COc1cc(OC)c(F)c(/C=C/c2cnc3ccn(S(=O)(=O)c4cn(CCF)cn4)c3n2)c1F,KIT,,100 nM,,inhibition,3.1%
O=C(Nc1ccc(Oc2ncnc3[nH]cc(-c4ccccc4)c23)c(F)c1)c1c2n(n(-c3cc(F)ccc3F)c1=O)CCCC2,KIT,"enzyme activity, inhibitor",0.5 µM,,inhibition,12%
C=CC(=O)Nc1cccc(-c2cnc3[nH]cc(C(=O)NC(C)(C)C)c3n2)c1,KIT,"enzyme activity, inhibitor",0.1 µM,,inhibition,-6%
CN1CCN(Cc2ccc(-c3ccc(CO[C@H]4CCC[C@@H]4NC(=O)c4cc(-c5cnn(C)c5)cnc4N)cc3)cc2)CC1,KIT,"enzyme activity, inhibitor",0.1 µM,,inhibition,-13%
Cc1cccc(O[C@H]2CCC[C@@H](C(C)CNCc3ccncc3)C2)c1 (relative stereo),KIT,"enzyme activity, inhibitor",1 µM,,inhibition,3%
C=CC(=O)N1CCCC(n2c(=O)c3ncccc3n(Cc3ccc(Oc4ccccc4)cc3)c2=O)C1 (centres unmarked),KIT A829P,"cell-free assay, competition with immobilised ligand",1 µM,,remaining binding,74%
Cc1cnc2nc1Nc1cccc(c1)COC/C=C/COCc1cc(ccc1OCCN1CCOCC1)N2,"Mast/stem cell growth factor receptor Kit, autoinhibited (KIT, Homo sapiens, UniProt P10721)",binding,0.1 µM,,remaining binding,74%
C=CC(=O)N1CCc2ccc(-n3c(=O)ccc4cnc5ccc(-c6cnn(C)c6)cc5c43)cc21,KIT T670I/V559D,KINOMEscan,1 µM,baseline: DMSO control,remaining binding,84%
CNC1C[S+]2CC[S+]3CC[S+](C1)[Ru-4]321([N]=C=S)[n]2c3ccc(OC)cc3c3c4c(c5cc(F)c[n+]1c5c32)C(=O)NC4=O (centres unmarked),KIT D816V,KinomeScan,0.1 µM,baseline: untreated,remaining binding,14%
C[C@H]1CN(C(=O)c2cn(-c3ccnc(N)n3)c3cc(C#CC4(O)CCCCC4)ccc23)CCN1,KIT,"enzyme activity, inhibitor, FRET",1 µM,,inhibition,1%
Cc1ccc(-c2c(/C=C(\C#N)C(=O)NC(C)C)n(CCCO)c3ncnc(N)c23)cc1,KIT T670I/V559D,"enzyme activity, inhibitor",1 µM,,remaining activity,95%
CCN1CCN(Cc2ccc(C(=O)Nc3ccc(C)c(NCc4cnc5[nH]ccc5c4OC)c3)cc2C(F)(F)F)CC1,KIT D816H,"binding, competition with immobilised ligand",1 µM,,remaining binding,18%
NC(=O)[C@@H](O)C[C@H]1CCc2sc3ncnc(O[C@H]4CC[C@H](N5CCOCC5)CC4)c3c21,KIT,"enzyme activity, inhibitor",10 µM,,inhibition,0%
COc1c(OCCCN2CCOCC2)ccc2c1N=C(NC(=O)c1cnc(N)nc1)N1CCN=C21,KIT,"kinase activity, inhibitor",1 µM,baseline: untreated control,remaining activity,121%
C=C1CCCCCCCCCC(CO)C1=O (centres unmarked),KIT T670I/V559D,cell-free assay,10 µM,,remaining signal,94%
Cc1nc2c(F)cc(-c3nc(Nc4ccc(CNC(=O)CCCCCCC(=O)NO)cc4)ncc3F)cc2n1C(C)C,KIT,"enzyme activity, inhibitor",1 µM,,inhibition,72%
